{"data": "Measured values from different studies", "rep main protease": "Replicase polyprotein 1ab, main protease (rep, Severe acute respiratory syndrome coronavirus 2, UniProt P0DTD1)", "Spike glycoprotein": "Spike glycoprotein (Severe acute respiratory syndrome coronavirus 2, UniProt P0DTC2)", "note": "Compare with care: the assays were run in different laboratories. Values joined by “and” are separate records of one study, mostly repeats; a detail may differ. ± marks the error that the study gave.", "chain of UniProt Q8JUX6 (whole entry, looked up)": "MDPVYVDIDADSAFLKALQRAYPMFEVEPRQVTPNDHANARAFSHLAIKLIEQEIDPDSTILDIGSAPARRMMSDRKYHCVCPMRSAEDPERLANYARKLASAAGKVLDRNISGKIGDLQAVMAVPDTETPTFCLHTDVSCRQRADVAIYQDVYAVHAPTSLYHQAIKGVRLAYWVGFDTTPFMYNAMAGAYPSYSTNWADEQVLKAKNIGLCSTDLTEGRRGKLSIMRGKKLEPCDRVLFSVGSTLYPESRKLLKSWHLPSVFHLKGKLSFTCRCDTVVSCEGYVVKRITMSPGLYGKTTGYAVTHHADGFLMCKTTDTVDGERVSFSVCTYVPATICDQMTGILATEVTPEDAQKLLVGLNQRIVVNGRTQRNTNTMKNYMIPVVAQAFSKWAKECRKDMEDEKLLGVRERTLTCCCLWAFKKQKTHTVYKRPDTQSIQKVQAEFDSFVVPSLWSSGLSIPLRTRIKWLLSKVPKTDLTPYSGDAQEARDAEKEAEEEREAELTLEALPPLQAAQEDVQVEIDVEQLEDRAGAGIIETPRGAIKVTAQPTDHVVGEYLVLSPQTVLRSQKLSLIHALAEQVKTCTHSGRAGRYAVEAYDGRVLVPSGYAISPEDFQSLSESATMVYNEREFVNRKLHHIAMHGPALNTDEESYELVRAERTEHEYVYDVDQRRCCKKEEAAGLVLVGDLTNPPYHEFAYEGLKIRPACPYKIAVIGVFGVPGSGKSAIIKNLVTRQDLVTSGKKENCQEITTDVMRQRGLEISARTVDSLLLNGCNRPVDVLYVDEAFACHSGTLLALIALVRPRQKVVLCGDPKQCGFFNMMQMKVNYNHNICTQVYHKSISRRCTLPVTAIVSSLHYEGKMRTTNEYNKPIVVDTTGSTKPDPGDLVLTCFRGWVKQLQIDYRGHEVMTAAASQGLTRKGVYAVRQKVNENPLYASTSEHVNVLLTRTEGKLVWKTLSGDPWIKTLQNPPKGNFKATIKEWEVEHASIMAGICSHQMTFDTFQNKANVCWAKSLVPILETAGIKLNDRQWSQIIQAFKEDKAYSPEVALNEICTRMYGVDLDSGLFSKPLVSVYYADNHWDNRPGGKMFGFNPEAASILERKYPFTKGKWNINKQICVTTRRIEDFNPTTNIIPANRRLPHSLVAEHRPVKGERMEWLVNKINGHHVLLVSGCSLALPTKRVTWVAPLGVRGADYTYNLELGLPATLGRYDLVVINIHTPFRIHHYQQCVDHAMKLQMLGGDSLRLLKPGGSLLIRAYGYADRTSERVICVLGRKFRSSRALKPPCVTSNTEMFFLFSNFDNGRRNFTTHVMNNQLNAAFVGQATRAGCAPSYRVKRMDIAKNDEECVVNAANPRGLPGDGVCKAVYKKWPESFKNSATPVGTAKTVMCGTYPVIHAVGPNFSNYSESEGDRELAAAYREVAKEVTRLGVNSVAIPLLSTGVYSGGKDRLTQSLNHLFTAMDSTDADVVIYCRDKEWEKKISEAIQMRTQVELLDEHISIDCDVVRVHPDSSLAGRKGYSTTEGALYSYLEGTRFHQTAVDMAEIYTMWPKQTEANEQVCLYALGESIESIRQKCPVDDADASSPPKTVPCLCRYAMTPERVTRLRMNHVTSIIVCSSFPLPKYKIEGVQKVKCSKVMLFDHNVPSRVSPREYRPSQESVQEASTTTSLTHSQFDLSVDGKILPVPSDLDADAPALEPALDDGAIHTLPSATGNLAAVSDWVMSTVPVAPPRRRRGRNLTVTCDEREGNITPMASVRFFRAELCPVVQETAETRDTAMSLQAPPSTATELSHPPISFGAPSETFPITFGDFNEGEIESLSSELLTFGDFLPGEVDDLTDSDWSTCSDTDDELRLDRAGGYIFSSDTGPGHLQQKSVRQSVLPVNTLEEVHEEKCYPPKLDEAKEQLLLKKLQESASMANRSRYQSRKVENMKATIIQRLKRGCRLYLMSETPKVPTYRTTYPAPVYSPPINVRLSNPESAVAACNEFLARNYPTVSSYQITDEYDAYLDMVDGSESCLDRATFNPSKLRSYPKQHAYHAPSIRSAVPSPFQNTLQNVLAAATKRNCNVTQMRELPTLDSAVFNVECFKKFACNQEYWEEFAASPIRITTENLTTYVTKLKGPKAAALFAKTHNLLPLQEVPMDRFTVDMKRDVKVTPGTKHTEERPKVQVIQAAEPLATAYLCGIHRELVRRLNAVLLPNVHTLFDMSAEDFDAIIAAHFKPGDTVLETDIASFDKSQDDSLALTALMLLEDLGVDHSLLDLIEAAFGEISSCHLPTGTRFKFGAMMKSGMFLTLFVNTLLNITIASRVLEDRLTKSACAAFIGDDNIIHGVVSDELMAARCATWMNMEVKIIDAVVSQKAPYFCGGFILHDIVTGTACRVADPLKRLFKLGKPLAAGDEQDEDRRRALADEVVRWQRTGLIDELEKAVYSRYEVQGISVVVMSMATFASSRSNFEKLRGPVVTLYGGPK", "chain of UniProt P78348 (whole entry, looked up)": "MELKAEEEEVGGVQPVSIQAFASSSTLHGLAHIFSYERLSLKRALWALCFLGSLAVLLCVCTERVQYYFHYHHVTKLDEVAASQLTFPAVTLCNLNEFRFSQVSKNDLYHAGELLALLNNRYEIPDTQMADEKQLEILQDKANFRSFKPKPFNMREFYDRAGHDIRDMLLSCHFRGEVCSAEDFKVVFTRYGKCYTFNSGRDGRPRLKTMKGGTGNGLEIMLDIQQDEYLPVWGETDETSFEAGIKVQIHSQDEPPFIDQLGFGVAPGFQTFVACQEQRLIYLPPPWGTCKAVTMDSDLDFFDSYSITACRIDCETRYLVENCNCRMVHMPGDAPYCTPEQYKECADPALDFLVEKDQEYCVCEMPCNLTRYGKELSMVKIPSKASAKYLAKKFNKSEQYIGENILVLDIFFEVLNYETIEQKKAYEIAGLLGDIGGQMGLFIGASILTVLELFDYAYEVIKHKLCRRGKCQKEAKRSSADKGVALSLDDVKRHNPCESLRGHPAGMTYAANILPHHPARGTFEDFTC", "chain of UniProt Q7BQ98 (whole entry, looked up)": "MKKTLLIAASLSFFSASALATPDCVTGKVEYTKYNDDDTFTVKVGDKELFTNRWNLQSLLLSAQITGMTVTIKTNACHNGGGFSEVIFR", "chain of UniProt P21836 (whole entry, looked up)": "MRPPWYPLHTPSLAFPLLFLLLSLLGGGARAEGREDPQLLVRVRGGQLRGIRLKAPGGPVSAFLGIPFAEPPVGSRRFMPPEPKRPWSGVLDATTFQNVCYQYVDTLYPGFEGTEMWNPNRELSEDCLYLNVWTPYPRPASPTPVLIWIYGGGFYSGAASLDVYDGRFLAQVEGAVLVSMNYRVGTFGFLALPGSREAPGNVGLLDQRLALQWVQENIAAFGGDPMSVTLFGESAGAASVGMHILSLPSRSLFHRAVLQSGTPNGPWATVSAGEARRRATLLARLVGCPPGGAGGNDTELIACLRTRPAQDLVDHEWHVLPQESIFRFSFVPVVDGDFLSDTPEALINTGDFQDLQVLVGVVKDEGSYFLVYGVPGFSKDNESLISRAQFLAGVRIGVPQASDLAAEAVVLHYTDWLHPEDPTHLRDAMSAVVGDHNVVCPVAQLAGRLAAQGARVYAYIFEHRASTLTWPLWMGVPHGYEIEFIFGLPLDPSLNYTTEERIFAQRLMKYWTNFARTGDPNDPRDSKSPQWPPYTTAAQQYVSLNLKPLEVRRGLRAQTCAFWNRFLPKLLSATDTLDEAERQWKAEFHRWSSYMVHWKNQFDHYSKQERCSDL"}
{"SMILES": "Cc1ccc(-c2nc(C[S+]([O-])CC(=O)N3CCN(c4ccc(Cl)cc4)CC3)c(C)o2)cc1 (stereo not shown)", "target or system": "SARS-CoV-2", "test": "cytopathic effect", "test system": "USA_WA1/2020", "setting": "round 1, 5-point", "measurement": "efficacy", "value": "36.9%"}
{"SMILES": "O=C(NC[C@@H]1Cc2ccccc2CN1C(=O)c1nnn2ccccc12)c1cccc2[nH]ncc12", "target or system": "rep main protease", "test": "enzyme activity, inhibitor", "setting": "5 µM, mean of runs", "measurement": "inhibition", "value": "10.3%"}
{"SMILES": "CC[C@H](C)[C@H](NC(=O)[C@H](CC(C)C)NC(=O)[C@H](Cc1c[nH]c2ccccc12)NC(=O)[C@H](CCC(N)=O)NC(=O)[C@@H](NC(=O)[C@H](Cc1ccccc1)NC(=O)[C@H](C)NC(=O)[C@H](CCCCNC(=O)COCCOCCNC(=O)COCCOCCNC(=O)CC[C@H](NC(=O)CCCCCCCCCCCCCCCCCCC(=O)O)C(=O)O)NC(=O)[C@H](CCC(N)=O)NC(=O)[C@H](C)NC(=O)[C@@H](NC(=O)[C@H](CCCCN)NC(=O)[C@H](CC(=O)O)NC(=O)[C@H](CC(C)C)NC(=O)C(C)(C)NC(=O)[C@@H](NC(=O)[C@H](CO)NC(=O)[C@H](Cc1ccc(O)cc1)NC(=O)[C@H](CC(=O)O)NC(=O)[C@H](CO)NC(=O)[C@@H](NC(=O)[C@H](Cc1ccccc1)NC(=O)[C@@H](NC(=O)CNC(=O)[C@H](CCC(=O)O)NC(=O)C(C)(C)NC(=O)[C@@H](N)Cc1ccc(O)cc1)[C@@H](C)O)[C@@H](C)O)[C@@H](C)CC)[C@@H](C)CC)C(C)C)C(=O)N[C@@H](C)C(=O)NCC(=O)NCC(=O)N1CCC[C@H]1C(=O)N[C@@H](CO)C(=O)N[C@@H](CO)C(=O)NCC(=O)N[C@@H](C)C(=O)N1CCC[C@H]1C(=O)N1CCC[C@H]1C(=O)N1CCC[C@H]1C(=O)N[C@@H](CO)C(N)=O", "test": "refers to: Vomiting", "test system": "healthy subjects", "setting": "5/5/8/10 mg titrated, multiple ascending dose", "measurement": "subjects with adverse events", "value": "42.9%"}
{"SMILES": "CCc1c2c(nc3ccc(OC(=O)N4CCC(N5CCCCC5)CC4)cc13)-c1cc3c(c(=O)n1C2)COC(=O)[C@]3(O)CC", "target or system": "Spike glycoprotein", "test": "binding, BLI", "measurement": "kon", "value": "402 M⁻¹ s⁻¹"}
{"SMILES": "O=C(c1ccc2cccnc2c1)N1CC[C@@H]([C@@H]2CCCN(C(=O)c3cccn4cnnc34)C2)C1", "target or system": "rep main protease", "test": "enzyme activity, inhibitor", "setting": "5 µM, run 1", "measurement": "inhibition", "value": "12.1%"}
{"SMILES": "O=C(O)c1cc(OCc2cn([C@@H]3O[C@H](CO)[C@H](O[C@H]4O[C@H](CO)[C@H](O)[C@H](O)[C@H]4O)[C@H](O)[C@H]3O)nn2)cc(OCc2cn([C@@H]3O[C@H](CO)[C@H](O[C@H]4O[C@H](CO)[C@H](O)[C@H](O)[C@H]4O)[C@H](O)[C@H]3O)nn2)c1", "target or system": "Shiga toxin subunit B (stxB, Shigella dysenteriae, UniProt Q7BQ98)", "test system": "Escherichia coli", "measurement": "log IC50", "value": -2.97}
{"SMILES": "C[C@@H]1[C@H](O)[C@@H](C)/C=C/C=C/CC/C=C/C=C/C=C/C=C/C(O[C@H]2O[C@H](C)[C@@H](O)[C@H](N)[C@@H]2O)CC2O[C@](O)(CC(O)C(O)CCC(O)CC(O)CC(O)CC(=O)O[C@H]1C)CC(O)C2C(=O)O (stereo partly shown)", "target or system": "Spike glycoprotein", "test": "binding, biolayer interferometry", "measurement": "koff", "value": "0.00611 s⁻¹"}
{"SMILES": "NC1=N[C@@](c2cccc(-c3cncnc3)c2)(c2ccnc(C(F)F)c2)c2cccc(F)c21", "target or system": "rep main protease", "test": "reporter gene (Gaussia luciferase), inhibitor", "setting": "20 µM", "measurement": "inhibition", "value": "0.646%"}
{"SMILES": "Nc1ncnc2c([C@@H]3N[C@H](CO)[C@@H](O)[C@H]3O)c[nH]c12", "target or system": "Middle East respiratory syndrome-related coronavirus", "test": "viral replication", "test system": "Vero C1008, Jordan N3", "setting": "3.1 µM", "measurement": "inhibition", "value": "18.3%"}
{"SMILES": "O=C(NC[C@@H]1C[C@H]2CC[C@@H]1N(C(=O)c1ccc3n[nH]nc3n1)C2)[C@@H]1CCc2n[nH]c(=O)n2C1", "target or system": "rep main protease", "test": "enzyme activity, inhibitor", "setting": "5 µM, run 1", "measurement": "inhibition", "value": "14.4%"}
{"SMILES": "Cc1[nH]c(/C=C2\\C(=O)Nc3ccc(F)cc32)c(C)c1C(=O)NCCN1CCCC1.O=P(O)(O)O", "target or system": "rep main protease", "test": "reporter gene (mKate2), inhibitor", "setting": "20 µM", "measurement": "inhibition", "value": "-0.892%"}
{"SMILES": "CC[C@H](C)[C@H](NC(=O)[C@@H]1CCCN1C(=O)[C@H](C)NC(=O)[C@@H]1CSSC[C@@H]2NC(=O)[C@H](CC(=O)O)NC(=O)[C@H](CCCNC(=N)N)NC(=O)[C@H](CCC(=O)O)NC(=O)[C@H](CCCNC(=N)N)NC(=O)CNC(=O)[C@H](CC(=O)O)NC(=O)[C@@H]3CSSC[C@H](NC(=O)[C@H](CCC(=O)O)NC(=O)[C@H](CC(C)C)NC(=O)CNC(=O)[C@H](C)NC(=O)[C@H](CSSC[C@H](NC(=O)[C@H](Cc4ccccc4)NC(=O)[C@@H](N)CO)C(=O)N[C@@H](CC(C)C)C(=O)N[C@@H](C(C)C)C(=O)N[C@@H](CCCCN)C(=O)N[C@@H](Cc4c[nH]c5ccccc45)C(=O)N[C@@H](CCCCN)C(=O)N[C@@H](CCC(N)=O)C(=O)N3)NC2=O)C(=O)N[C@@H](Cc2c[nH]c3ccccc23)C(=O)N[C@@H](CCCCN)C(=O)N[C@@H](CCCNC(=N)N)C(=O)N[C@@H](CCCNC(=N)N)C(=O)NCC(=O)N[C@@H](CC(N)=O)C(=O)N[C@@H](CCCCN)C(=O)N[C@@H](CO)C(=O)N[C@@H](CO)C(=O)N[C@@H](C(C)C)C(=O)N1)C(=O)N[C@H](C(=O)O)[C@@H](C)O", "target or system": "ASIC1 (Homo sapiens, UniProt P78348)", "test": "outside-out patch clamp", "test system": "HEK-293T ASIC1a knockout", "setting": "100 nM", "measurement": "slow deactivation component fraction", "value": "0.61 ± 0.02"}
{"SMILES": "Cn1cnc(Cn2c(=O)[nH]/c(=N\\c3cc4cn(C)nc4cc3Cl)n(Cc3cc(F)c(F)cc3F)c2=O)n1", "test system": "human, all renal function groups", "setting": "oral, 375 mg, hypertriglyceridaemia TEAE, Mild severity", "measurement": "patients with adverse event", "value": "0%"}
{"SMILES": "O=C(N1CCC2(CC1)C[C@H](CN1CCCCS1(=O)=O)CCO2)C1(c2ccccc2)CCCC1", "target or system": "Polyprotein P1234, nsP2 (Chikungunya virus, UniProt Q8JUX6)", "test": "RNA strand separation, inhibitor, FRET", "scale": "baseline: compound over (S)-enantiomer, higher = more potent than (S)", "measurement": "potency ratio", "value": "200 fold"}
{"SMILES": "CNC(=O)[C@@H](NC(=O)[C@H](CC(C)C)[C@H](O)C(=O)NO)C(C)(C)C", "target or system": "Daboia russelii venom proteases (SVMP)", "test": "protease activity, inhibitor", "test system": "KL population", "setting": "0.01 µM, together with: azocasein substrate", "scale": "baseline: venom alone", "measurement": "remaining activity", "value": "95.7% and 94% and 94.2%"}
{"SMILES": "CC(C)(C(=O)NCC(F)(F)C(F)(F)F)C(=O)N[C@@H]1C(=O)Nc2ccccc2-c2ccccc21", "target or system": "rep main protease", "test": "reporter gene (Gaussia luciferase), inhibitor", "setting": "20 µM", "measurement": "inhibition", "value": "0.921%"}
{"SMILES": "CC(C)(C)[C@H](NC(=O)C(F)(F)F)C(=O)N1C[C@H]2[C@@H]([C@H]1C(=O)N[C@H](C#N)C[C@@H]1CCNC1=O)C2(C)C", "test system": "human, fasted", "setting": "oral, 150 mg single dose, no ritonavir", "measurement": "AUC(0-t)", "value": "2120 ng·h/mL"}
{"SMILES": "COc1ccccc1C(=O)NC1CCCN(Cc2cccc(-c3ccc(C)c(Cl)c3)c2)C1 (stereo not shown)", "target or system": "SARS-CoV-2", "test": "cytopathic effect, cell-based CPE", "test system": "USA_WA1/2020", "setting": "round 1, 5-point dilution", "measurement": "AC50", "value": "12.6 µM"}
{"SMILES": "CC(C)(C)c1ccc(Oc2ccc(N)cn2)cc1", "target or system": "rep main protease", "test": "reporter gene (Gaussia luciferase), inhibitor", "setting": "20 µM", "measurement": "inhibition", "value": "-0.0448%"}
{"SMILES": "CCOP(=O)(OCC)Oc1ccc([N+](=O)[O-])cc1", "target or system": "Ache (Mus musculus, UniProt P21836)", "test": "end-plate current after AChE inhibition", "test system": "mouse diaphragm", "setting": "4 µM, 4 min", "measurement": "increase in amplitude", "value": "16%"}
{"SMILES": "O=C(/C=C/c1ccc2ncccc2c1)N1CCC[C@@]2(CCN(C(=O)c3cc(=O)[nH]c(=O)[nH]3)C2)C1", "target or system": "rep main protease", "test": "enzyme activity", "setting": "5 µM, mean of runs", "measurement": "inhibition", "value": "17.9%"}
{"SMILES": "CCOC(=O)CCN(C(=O)c1ccc2c(c1)nc(CNc1ccc(C(=N)N)cc1)n2C)c1ccccn1.Cl", "target or system": "rep main protease", "test": "reporter gene (mKate2), inhibitor", "setting": "20 µM", "measurement": "inhibition", "value": "-0.136%"}
{"note": "Repeated from above:"}
{"SMILES": "O=C(NC[C@@H]1C[C@H]2CC[C@@H]1N(C(=O)c1ccc3n[nH]nc3n1)C2)[C@@H]1CCc2n[nH]c(=O)n2C1", "target or system": "rep main protease", "test": "enzyme activity, inhibitor", "setting": "5 µM, run 1", "measurement": "inhibition", "value": "14.4%"}
{"SMILES": "Cc1[nH]c(/C=C2\\C(=O)Nc3ccc(F)cc32)c(C)c1C(=O)NCCN1CCCC1.O=P(O)(O)O", "target or system": "rep main protease", "test": "reporter gene (mKate2), inhibitor", "setting": "20 µM", "measurement": "inhibition", "value": "-0.892%"}
